Published values collected from several papers.
Parts stem from different laboratories: compare values within a part only. Changes are numbered by the printed parent chain.
Chain of UniProt P10721 (whole entry, unmodified, looked up): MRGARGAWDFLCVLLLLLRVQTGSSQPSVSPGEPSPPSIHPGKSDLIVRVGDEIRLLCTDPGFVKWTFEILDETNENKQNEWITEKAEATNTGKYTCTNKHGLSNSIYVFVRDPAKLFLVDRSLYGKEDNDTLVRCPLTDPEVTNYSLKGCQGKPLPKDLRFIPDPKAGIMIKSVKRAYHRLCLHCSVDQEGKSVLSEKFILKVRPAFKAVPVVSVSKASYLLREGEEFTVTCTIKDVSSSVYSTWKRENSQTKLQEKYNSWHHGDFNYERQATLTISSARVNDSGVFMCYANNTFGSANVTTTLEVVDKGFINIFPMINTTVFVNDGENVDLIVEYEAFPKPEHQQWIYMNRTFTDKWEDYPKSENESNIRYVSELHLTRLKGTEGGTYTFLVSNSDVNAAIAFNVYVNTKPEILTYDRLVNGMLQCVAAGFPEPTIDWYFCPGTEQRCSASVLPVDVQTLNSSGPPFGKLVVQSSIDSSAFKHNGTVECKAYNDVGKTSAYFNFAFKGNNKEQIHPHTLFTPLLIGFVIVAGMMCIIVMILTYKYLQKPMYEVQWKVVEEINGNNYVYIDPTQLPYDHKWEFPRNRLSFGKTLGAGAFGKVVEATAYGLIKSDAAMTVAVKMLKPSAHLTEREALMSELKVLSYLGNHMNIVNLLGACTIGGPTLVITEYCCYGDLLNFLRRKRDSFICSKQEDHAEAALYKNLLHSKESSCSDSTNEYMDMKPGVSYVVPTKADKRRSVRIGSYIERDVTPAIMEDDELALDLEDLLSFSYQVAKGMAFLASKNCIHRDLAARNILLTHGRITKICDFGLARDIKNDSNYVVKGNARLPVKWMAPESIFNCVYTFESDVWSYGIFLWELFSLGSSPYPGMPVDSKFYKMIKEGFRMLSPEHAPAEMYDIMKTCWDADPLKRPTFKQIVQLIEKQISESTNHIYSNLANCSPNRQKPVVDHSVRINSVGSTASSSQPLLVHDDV
Chain of UniProt Q9Y2I7 (whole entry, looked up): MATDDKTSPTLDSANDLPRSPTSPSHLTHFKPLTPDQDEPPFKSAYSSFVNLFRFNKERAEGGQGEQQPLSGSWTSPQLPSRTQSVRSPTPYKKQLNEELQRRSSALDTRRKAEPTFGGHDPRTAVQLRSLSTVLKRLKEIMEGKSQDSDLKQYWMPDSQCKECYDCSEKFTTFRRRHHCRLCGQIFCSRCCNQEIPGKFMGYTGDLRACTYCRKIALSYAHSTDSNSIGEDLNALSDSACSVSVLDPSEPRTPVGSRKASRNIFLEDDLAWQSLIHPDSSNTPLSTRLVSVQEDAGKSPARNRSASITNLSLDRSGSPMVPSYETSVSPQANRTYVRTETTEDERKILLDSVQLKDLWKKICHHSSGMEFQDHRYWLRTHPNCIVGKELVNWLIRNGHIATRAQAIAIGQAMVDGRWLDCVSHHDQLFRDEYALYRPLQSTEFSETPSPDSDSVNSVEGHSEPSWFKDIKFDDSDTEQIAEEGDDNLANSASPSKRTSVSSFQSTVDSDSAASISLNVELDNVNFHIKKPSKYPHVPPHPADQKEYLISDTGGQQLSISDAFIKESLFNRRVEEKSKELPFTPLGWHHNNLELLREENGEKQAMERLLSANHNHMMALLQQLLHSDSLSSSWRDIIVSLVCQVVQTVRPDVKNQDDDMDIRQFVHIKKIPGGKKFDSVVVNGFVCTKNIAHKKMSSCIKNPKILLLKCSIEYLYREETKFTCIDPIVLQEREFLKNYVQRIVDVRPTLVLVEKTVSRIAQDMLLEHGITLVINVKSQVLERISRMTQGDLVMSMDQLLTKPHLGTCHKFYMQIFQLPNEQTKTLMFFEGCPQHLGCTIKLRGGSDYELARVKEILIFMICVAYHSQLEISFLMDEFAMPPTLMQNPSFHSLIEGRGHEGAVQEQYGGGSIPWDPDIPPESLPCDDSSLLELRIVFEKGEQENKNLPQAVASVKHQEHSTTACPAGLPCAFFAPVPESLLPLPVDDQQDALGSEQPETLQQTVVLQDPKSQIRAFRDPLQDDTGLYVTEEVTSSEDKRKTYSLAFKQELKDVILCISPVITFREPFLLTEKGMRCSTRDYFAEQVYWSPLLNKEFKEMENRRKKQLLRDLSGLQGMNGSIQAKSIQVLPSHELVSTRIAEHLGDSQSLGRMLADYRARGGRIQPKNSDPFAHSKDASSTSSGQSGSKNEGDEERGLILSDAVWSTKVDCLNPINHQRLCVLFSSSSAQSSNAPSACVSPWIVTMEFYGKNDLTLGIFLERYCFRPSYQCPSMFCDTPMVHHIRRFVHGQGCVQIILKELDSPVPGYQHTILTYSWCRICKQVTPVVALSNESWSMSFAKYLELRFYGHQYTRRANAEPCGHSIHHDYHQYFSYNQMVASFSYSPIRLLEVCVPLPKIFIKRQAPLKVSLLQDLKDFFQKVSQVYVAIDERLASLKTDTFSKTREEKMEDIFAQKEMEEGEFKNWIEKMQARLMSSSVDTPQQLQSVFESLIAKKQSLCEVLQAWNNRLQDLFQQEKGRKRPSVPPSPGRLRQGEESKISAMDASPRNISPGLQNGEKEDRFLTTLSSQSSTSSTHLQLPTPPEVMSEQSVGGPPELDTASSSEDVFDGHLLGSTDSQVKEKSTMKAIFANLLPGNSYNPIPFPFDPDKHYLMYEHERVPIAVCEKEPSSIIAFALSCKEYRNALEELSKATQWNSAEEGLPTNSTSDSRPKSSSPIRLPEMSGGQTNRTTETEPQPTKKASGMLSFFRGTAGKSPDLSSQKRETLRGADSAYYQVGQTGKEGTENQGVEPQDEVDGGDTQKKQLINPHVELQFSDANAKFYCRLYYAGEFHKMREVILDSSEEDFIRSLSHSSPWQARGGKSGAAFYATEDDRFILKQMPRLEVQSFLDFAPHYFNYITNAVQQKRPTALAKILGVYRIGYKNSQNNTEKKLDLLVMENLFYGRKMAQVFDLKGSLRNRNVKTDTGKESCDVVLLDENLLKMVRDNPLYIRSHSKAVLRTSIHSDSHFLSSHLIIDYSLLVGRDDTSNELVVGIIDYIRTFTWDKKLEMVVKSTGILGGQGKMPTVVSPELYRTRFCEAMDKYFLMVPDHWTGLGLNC
Chain of UniProt P31749 (whole entry, looked up): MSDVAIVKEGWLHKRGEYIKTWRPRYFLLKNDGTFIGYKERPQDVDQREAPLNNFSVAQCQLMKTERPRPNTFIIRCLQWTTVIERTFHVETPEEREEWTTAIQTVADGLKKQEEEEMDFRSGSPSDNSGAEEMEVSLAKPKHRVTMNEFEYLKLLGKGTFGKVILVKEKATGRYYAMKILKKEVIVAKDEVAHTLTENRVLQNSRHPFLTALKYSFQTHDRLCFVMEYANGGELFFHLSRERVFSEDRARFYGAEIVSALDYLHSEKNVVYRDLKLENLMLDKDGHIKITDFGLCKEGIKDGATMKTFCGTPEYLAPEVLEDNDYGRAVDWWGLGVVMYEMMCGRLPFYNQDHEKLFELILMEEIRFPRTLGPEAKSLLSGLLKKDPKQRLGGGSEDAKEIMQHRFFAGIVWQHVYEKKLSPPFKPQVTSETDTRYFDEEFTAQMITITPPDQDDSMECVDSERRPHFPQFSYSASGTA
Chain of UniProt Q15208 (whole entry, looked up): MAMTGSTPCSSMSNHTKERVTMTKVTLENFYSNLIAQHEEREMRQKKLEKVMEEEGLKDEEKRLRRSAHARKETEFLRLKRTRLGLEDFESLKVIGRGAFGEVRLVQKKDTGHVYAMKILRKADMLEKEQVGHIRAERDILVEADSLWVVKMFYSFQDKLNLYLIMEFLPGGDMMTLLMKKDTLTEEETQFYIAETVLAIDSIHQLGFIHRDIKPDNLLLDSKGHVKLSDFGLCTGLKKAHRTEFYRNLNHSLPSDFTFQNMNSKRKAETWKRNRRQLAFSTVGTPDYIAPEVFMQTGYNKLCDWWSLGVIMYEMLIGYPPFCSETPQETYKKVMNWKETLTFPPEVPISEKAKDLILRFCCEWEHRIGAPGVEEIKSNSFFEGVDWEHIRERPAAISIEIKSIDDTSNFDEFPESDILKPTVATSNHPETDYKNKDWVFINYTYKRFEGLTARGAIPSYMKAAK

Set 1 — observed: cell-free assay; technique: competition with immobilised ligand; concentration: 1 µM
SMILES: N#CC1(c2ccccn2)CCN(Cc2cc(C(=O)N3CCCC3)c(=O)n3ccccc23)CC1
It gave 76% for remaining binding (1-phosphatidylinositol 3-phosphate 5-kinase (PIKFYVE, Homo sapiens, UniProt Q9Y2I7)).
For Mast/stem cell growth factor receptor Kit (KIT, Homo sapiens, UniProt P10721, T670I/V559D): remaining binding read 88%.
For SNF-related serine/threonine-protein kinase (SNRK, Homo sapiens, UniProt Q9NRH2): remaining binding read 91%.
Mast/stem cell growth factor receptor Kit (KIT, Homo sapiens, UniProt P10721, D816V) — remaining binding: 100%.
Serine/threonine-protein kinase 38 (STK38, Homo sapiens, UniProt Q15208) — remaining binding: 64%.
The remaining binding was 100% (Serine/threonine-protein kinase PLK2 (PLK2, Homo sapiens, UniProt Q9NYY3)).
Serine/threonine-protein kinase PAK 2 (PAK2, Homo sapiens, UniProt Q13177) — remaining binding: 100%.
For BDNF/NT-3 growth factors receptor (NTRK2, Homo sapiens, UniProt Q16620): remaining binding read 93%.
Uncharacterized serine/threonine-protein kinase SBK3 (SBK3, Homo sapiens, UniProt P0C264) — remaining binding: 100%.
It gave 91% for remaining binding (RAC-alpha serine/threonine-protein kinase (AKT1, Homo sapiens, UniProt P31749)).
The remaining binding was 93% (Receptor tyrosine-protein kinase erbB-3 (ERBB3, Homo sapiens, UniProt P21860)).
The remaining binding was 100% (Phosphatidylinositol 4-phosphate 3-kinase C2 domain-containing subunit beta (PIK3C2B, Homo sapiens, UniProt O00750)).
TRAF2 and NCK-interacting protein kinase (TNIK, Homo sapiens, UniProt Q9UKE5) — remaining binding: 100%.
For Serine/threonine-protein kinase Nek10 (NEK10, Homo sapiens, UniProt Q6ZWH5): remaining binding read 96%.

Set 2 — technique: universal PBM; form: double-stranded DNA, one strand shown; matrix: in vitro; concentration: 600 nM; reading: higher = stronger binding
Target: Sal-like protein 4, full length isoform A (SALL4, Homo sapiens, UniProt Q9UJQ4, residues 1-1053)
Chain of UniProt Q9UJQ4 (whole entry, looked up): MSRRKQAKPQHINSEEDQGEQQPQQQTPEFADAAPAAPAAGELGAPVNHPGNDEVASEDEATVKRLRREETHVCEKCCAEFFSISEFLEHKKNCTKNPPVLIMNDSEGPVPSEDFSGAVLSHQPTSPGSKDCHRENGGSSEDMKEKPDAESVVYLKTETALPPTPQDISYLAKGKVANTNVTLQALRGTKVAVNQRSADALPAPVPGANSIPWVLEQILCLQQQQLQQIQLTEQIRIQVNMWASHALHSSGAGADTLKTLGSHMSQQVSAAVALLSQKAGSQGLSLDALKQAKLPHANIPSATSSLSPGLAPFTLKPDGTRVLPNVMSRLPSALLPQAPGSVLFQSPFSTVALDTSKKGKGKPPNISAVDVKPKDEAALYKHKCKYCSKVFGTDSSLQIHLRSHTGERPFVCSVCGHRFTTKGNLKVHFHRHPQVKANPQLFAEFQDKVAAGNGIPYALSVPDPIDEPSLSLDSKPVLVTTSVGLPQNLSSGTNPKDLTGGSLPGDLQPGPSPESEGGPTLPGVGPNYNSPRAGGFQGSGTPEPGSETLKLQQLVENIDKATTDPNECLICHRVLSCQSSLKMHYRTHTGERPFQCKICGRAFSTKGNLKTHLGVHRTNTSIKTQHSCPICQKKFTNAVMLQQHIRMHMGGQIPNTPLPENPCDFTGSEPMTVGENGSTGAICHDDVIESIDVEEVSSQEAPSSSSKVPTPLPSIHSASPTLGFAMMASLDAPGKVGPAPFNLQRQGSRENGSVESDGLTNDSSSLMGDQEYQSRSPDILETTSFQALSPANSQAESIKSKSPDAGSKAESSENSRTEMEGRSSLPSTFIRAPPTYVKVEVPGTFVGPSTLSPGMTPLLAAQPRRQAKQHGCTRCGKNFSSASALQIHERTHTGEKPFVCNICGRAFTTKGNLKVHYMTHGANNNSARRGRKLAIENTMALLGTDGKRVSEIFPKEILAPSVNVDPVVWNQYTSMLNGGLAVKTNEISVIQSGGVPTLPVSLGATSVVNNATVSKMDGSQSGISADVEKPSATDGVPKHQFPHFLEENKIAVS
Notes: 8-mer, flanks averaged, mean of replicates
`AGTCGAGA` has an E-score of 0.0946.
`CAAATCTC` gave an E-score of 0.0343.
`AAGCGAAC` has an E-score of -0.122.
`GTCGCTGA` has an E-score of -0.13.
For `GAATCGGC`, the E-score was -0.0774.
`CGCCAAAA` gave an E-score of 0.0471.
With `GCTGTTCC` the E-score was -0.175.
For `GACCGGTA`, the E-score was -0.313.

Set 3 — target: MAFK, bZIP domain (human); technique: DHFR protein complementation; matrix: yeast; relative to: wild-type JUN-FOS pair; reading: higher = stronger binding
Notes: single substitutions, most at no-binding floor
Starting sequence: JUN, bZIP domain (human); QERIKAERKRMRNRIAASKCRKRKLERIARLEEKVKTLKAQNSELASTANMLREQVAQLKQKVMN; partner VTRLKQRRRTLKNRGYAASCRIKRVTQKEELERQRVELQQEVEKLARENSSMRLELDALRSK
The binding fitness of `A29D` is reported as -1.27 natural log.
The binding fitness of `S47R` is reported as -1.36 natural log.
The binding fitness of `K36A` is reported as -1.36 natural log.
`Q55Y` gave a binding fitness of -1.55 natural log.
For `V56R`, the binding fitness was -1.45 natural log.
`L52N` gave a binding fitness of -1.49 natural log.
With `Q41N` the binding fitness was -1.53 natural log.
`Q55I` has a binding fitness of -1.5 natural log.

Single results of other studies — species: human; matrix: microsomes or S9; concentration: 2 µM; time: 0.5 h
With `O=C(O)Cn1cnc(S(=O)(=O)N2CCCC2)c1` the remaining compound was 98.4%.
`COc1ccc2nc(O)c(-c3c4oc5cc(O)ccc5c4nc4c3c(=O)[nH]n4C3CCCCCCC3)cc2c1` has a remaining compound of 38.5%.
`CCS(=O)(=O)CC(=O)N1CC(C)(C)N(C)c2cc(Br)ccc21` gave a remaining compound of 5.1%.

Repeated from above (set 1):
For Mast/stem cell growth factor receptor Kit (KIT, Homo sapiens, UniProt P10721, T670I/V559D): remaining binding read 88%.
For SNF-related serine/threonine-protein kinase (SNRK, Homo sapiens, UniProt Q9NRH2): remaining binding read 91%.
Mast/stem cell growth factor receptor Kit (KIT, Homo sapiens, UniProt P10721, D816V) — remaining binding: 100%.
Serine/threonine-protein kinase 38 (STK38, Homo sapiens, UniProt Q15208) — remaining binding: 64%.
The remaining binding was 100% (Serine/threonine-protein kinase PLK2 (PLK2, Homo sapiens, UniProt Q9NYY3)).
